Experimental data from different studies.
Every numbered part comes from another study and shows a few of its results, in no order.
UniProt P42680, sequence (whole entry, looked up): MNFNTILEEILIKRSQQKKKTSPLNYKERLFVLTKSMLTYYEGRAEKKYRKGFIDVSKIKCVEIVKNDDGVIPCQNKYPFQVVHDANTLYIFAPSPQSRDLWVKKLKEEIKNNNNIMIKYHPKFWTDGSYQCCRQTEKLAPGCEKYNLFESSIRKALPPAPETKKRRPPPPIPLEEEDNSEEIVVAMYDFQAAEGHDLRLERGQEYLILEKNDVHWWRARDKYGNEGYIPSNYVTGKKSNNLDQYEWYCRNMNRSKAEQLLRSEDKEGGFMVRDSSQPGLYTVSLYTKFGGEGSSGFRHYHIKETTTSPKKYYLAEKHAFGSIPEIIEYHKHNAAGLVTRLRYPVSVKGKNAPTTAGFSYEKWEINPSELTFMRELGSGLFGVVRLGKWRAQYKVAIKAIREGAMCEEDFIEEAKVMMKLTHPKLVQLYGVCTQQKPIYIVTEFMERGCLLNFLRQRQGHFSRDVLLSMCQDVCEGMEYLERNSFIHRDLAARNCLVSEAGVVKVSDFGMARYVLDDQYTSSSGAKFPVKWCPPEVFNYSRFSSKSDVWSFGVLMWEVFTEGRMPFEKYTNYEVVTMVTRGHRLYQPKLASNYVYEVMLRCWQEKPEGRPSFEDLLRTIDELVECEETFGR
UniProt Q08881, sequence (whole entry, looked up): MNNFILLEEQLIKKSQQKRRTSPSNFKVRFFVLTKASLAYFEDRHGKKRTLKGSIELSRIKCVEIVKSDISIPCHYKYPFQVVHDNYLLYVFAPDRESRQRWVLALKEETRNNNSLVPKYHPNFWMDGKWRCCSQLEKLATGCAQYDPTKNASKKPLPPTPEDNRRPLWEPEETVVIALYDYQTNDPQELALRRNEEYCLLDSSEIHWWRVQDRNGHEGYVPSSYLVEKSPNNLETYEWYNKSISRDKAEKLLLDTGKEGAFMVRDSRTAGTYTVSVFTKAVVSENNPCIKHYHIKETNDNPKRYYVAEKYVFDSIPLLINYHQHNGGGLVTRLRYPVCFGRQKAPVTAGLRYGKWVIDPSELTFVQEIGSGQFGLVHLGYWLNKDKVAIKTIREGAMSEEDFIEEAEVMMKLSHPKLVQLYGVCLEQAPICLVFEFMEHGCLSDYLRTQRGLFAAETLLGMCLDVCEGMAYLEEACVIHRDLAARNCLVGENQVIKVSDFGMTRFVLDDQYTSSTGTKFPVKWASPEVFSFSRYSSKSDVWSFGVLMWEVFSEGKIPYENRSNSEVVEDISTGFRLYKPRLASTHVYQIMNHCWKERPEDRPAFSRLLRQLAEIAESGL
UniProt P09619, sequence (whole entry, looked up): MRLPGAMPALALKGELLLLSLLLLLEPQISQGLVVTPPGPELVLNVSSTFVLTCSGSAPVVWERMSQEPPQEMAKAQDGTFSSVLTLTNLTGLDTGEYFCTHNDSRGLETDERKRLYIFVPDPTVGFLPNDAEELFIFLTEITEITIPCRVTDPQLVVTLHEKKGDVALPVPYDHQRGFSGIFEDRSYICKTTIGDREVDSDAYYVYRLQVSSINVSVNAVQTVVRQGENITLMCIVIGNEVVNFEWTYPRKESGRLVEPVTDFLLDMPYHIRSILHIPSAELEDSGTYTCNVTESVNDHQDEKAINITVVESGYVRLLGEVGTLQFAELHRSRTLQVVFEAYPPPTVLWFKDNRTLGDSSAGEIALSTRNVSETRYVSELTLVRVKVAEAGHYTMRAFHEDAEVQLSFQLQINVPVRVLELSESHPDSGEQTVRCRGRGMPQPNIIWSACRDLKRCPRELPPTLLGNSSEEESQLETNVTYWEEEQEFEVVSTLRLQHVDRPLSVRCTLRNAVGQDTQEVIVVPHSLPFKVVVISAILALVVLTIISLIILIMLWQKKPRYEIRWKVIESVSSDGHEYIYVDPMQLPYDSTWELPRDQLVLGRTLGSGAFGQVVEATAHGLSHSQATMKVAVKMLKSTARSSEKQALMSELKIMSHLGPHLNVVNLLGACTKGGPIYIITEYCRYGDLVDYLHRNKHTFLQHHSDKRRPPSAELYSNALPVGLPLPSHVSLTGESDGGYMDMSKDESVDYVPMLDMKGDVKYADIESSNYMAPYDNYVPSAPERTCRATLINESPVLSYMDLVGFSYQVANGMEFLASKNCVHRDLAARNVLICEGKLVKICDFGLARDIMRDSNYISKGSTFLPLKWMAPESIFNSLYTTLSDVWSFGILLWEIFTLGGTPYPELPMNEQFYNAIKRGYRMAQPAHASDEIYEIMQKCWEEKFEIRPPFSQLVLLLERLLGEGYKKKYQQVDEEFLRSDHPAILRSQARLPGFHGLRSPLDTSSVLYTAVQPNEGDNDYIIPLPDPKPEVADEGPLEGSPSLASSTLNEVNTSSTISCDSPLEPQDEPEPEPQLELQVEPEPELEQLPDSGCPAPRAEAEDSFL
UniProt P15056, sequence (whole entry, looked up): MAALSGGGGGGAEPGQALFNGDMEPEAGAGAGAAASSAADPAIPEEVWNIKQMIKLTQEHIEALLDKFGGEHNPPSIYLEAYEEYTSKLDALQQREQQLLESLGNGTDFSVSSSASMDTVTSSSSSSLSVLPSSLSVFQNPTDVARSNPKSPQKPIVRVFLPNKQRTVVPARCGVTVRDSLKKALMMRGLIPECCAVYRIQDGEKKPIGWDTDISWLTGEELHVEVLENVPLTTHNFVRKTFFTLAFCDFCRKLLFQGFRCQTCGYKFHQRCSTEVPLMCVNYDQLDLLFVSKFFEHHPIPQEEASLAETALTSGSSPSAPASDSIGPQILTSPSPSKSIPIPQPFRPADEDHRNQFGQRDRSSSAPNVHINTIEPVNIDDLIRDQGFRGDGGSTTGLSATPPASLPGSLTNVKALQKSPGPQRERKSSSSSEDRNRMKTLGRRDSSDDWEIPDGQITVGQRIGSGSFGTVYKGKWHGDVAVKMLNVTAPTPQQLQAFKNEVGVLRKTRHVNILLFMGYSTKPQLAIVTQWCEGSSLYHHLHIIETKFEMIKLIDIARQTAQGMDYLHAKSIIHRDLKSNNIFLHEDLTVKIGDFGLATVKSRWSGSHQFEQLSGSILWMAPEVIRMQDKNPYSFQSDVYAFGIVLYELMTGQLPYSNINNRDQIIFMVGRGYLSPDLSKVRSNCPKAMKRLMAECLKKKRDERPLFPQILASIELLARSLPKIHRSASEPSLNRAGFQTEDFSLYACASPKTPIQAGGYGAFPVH
UniProt O94768, sequence (whole entry, looked up): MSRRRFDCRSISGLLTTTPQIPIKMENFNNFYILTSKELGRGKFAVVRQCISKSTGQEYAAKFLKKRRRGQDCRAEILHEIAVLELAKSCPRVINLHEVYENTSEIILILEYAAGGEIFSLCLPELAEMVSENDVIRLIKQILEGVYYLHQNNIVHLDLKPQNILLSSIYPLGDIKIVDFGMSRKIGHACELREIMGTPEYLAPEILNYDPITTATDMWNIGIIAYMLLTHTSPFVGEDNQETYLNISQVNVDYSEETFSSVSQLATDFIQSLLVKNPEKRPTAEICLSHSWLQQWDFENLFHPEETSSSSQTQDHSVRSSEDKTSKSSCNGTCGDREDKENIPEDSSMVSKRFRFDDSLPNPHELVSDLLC
UniProt Q9BZL6, sequence (whole entry, looked up): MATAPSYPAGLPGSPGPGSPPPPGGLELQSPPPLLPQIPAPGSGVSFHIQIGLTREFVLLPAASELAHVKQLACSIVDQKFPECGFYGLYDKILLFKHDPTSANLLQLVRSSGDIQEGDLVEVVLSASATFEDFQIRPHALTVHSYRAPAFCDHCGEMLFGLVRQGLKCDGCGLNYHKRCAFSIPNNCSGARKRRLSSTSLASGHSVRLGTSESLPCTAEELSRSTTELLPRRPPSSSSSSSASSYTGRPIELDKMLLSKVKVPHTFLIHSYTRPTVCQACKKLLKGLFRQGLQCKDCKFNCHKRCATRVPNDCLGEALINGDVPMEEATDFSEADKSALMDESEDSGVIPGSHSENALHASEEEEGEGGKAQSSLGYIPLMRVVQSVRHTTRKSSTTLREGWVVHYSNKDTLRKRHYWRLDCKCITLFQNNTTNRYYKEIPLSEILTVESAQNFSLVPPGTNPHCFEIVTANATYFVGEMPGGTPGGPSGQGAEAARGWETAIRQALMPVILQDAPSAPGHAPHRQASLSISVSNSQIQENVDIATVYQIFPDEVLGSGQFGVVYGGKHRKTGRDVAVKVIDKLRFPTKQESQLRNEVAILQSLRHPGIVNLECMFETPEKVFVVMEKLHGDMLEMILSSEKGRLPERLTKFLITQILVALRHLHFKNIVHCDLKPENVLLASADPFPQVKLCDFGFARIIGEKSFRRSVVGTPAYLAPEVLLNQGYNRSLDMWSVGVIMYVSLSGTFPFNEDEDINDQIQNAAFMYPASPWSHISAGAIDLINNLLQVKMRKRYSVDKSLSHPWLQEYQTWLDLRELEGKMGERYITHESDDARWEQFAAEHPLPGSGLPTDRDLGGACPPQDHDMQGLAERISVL

Study 1 — cell line: A-375; concentration: 100 µM; time: 18 h
Compound	viability [%]
COCCCOc1cc(C[C@@H](C[C@H](N)[C@@H](O)C[C@H](C(=O)NCC(C)(C)C(N)=O)C(C)C)C(C)C)ccc1OC	81.3
CC1(C)C[C@@H]1C(=O)N/C(=C\CCCCSC[C@H](N)C(=O)O)C(=O)O	107
O=C(O)c1cc(=O)[nH]c(=O)[nH]1	91.6
Cc1onc(-c2ccccc2)c1C(=O)N[C@@H]1C(=O)N2[C@@H]1SC(C)(C)[C@@H]2C(=O)O	100
Cc1cn[nH]c1	90.3

Study 2 — medium: EL4 tumour; dose: dose not given; relative to: vehicle
Structure (SMILES): CC(=O)N[C@@H](Cc1c[nH]c2ccccc12)C(=O)N[C@@H](CCC(=O)C=[N+]=[N-])C(=O)OC(C)C
item	species	log2 fold change
cinnamoylglycine	mouse, EL4 tumour-bearing	1.06
heme	mouse, EL4 tumour-bearing	-0.0342
betaine aldehyde	Mus musculus	-1.43
2-aminophenol sulfate	mouse, EL4 tumour-bearing	0.92

Study 3 — method: competition with immobilised ligand; concentration: 1 µM
Compound: O=C(N[C@H]1CCCCC/C=C\C2C[C@@]2(C(=O)O)NC(=O)[C@@H]2C[C@@H](Oc3ccncc3)CN2C1=O)OC1CCCC1 (some centres unmarked)
target	read-out	remaining binding
PRKD2 (Homo sapiens, UniProt Q9BZL6)	binding	100%
PIP5K1A (Homo sapiens, UniProt Q99755)	cell-free assay	99%
STK17B (Homo sapiens, UniProt O94768)	cell-free assay	69%
ALK (Homo sapiens, UniProt Q9UM73)	cell-free assay	100%
BRAF (Homo sapiens, UniProt P15056)	cell-free assay	100%
ITK (Homo sapiens, UniProt Q08881)	binding	100%
TEC (Homo sapiens, UniProt P42680)	binding	100%
PDGFRB (Homo sapiens, UniProt P09619)	binding	87%

Study 4 — read-out: enzyme activity; mode: inhibitor; concentration: 0.5 µM; relative to: control
Target: SRSF protein kinase 3 (SRPK3, Homo sapiens, UniProt Q9UPE1)
UniProt Q9UPE1, sequence (whole entry, looked up): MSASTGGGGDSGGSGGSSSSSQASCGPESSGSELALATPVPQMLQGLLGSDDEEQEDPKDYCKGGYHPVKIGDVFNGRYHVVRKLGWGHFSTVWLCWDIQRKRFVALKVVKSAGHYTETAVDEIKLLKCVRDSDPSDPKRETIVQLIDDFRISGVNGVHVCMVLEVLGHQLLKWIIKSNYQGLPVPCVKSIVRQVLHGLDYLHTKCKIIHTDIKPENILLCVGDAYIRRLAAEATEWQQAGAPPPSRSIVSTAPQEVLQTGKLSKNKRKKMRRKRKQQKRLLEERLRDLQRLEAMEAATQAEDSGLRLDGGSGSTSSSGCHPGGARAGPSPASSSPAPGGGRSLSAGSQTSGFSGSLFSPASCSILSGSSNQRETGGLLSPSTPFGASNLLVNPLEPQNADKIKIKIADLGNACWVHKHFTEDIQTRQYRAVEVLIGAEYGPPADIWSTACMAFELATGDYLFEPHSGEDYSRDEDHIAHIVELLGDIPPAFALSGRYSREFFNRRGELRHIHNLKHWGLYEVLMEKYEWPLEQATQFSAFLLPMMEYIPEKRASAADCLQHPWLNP
SMILES	remaining activity [%]
O=C(O)c1ccc2c3c1cccc3c(=O)n1c3ccccc3nc21	82.8
O=C1NC(=O)c2cc(Nc3ccc(F)cc3)c(Nc3ccc(F)cc3)cc21	98
Cn1c2ccccc2c2c3c(c4c5ccccc5n(CCC#N)c4c21)CNC3=O	92.8
Nc1ncnc2n[nH]c(Nc3ccc(F)cc3)c12	91.5
Cc1ccc(Nc2nccc(N(C)c3ccc4c(C)n(C)nc4c3)n2)cc1S(N)(=O)=O	102
Cn1sc(=O)n(Cc2ccccc2)c1=O	97.3
CC(C)[C@H](CO)Nc1nc(Nc2cc(N)cc(Cl)c2)c2ncn(C(C)C)c2n1	37.7
O=C1NC(=O)C(c2cn(CCCO)c3ncccc23)=C1c1cnccn1	91.2
OCC(O)CCON=C1C(c2c(O)[nH]c3ccccc23)=Nc2ccccc21 (centres unmarked)	59.5
Nc1[nH]nc2nc3ccccc3nc12	95.6
O=S(=O)(c1cccc2cnccc12)N1CCCNCC1	96.4
O=C1NC(=O)C(c2cn(CCCn3ccnc3)c3ccccc23)=C1Nc1ccccc1	92.5
Cc1nc(-c2ccccc2)c(-c2ccncc2)o1	103
COc1cc2nccc(Oc3ccc(NC(=S)NC(=O)c4ccccc4C)cc3)c2cc1OC	95.9
NCCNc1ncc(C(N)=O)c(Nc2cccc(C(F)(F)F)c2)n1	87.1
Oc1ccc(-c2nc(-c3ccncc3)c(-c3ccc(F)cc3)[nH]2)cc1	95.9
CCOC(=O)c1c(C)[nH]c(/C=C2\C(=O)Nc3ccccc32)c1C	88.8
COc1ccc(C(=O)Nc2sc3c(c2C(N)=O)CCCC3)cc1OC	92
O=C(Nc1cccc(Nc2cc(Nc3cccc(C(F)(F)F)c3)ncn2)c1)C1CC1	103
COc1cc2ncnc(Nc3ccc(F)c(Cl)c3)c2cc1OCCCN1CCOCC1	103
N#CC(C#N)=C(N)/C(C#N)=C/c1ccc(O)cc1	96.4
Nc1ccc2ncnc(NCCc3ccc(Oc4ccccc4)cc3)c2c1	96.6

Study 5 — organism: Sarcocystis neurona; read-out: parasite growth; concentration: 10 µM; time: 96 h; setting: second screen; relative to: untreated
SMILES	log2 fold change
CN1CCC(=C2c3ccccc3C=Cc3ccccc32)CC1	-0.0465
O=C(O)C[C@H](O)C[C@H](O)/C=C/c1c(C2CC2)nc2ccccc2c1-c1ccc(F)cc1	0.12
NNC(=O)c1ccncc1	0.34
CCCNC(C)C(=O)Nc1ccccc1C (centres unmarked)	0.15
CO/N=C(\C(=O)N[C@@H]1C(=O)N2C(C(=O)O)=C(COC(N)=O)CS[C@H]12)c1ccco1	0.47

Excerpt of the above (study 4):
SMILES	remaining activity [%]
O=C(Nc1cccc(Nc2cc(Nc3cccc(C(F)(F)F)c3)ncn2)c1)C1CC1	103
Cn1sc(=O)n(Cc2ccccc2)c1=O	97.3
Cn1c2ccccc2c2c3c(c4c5ccccc5n(CCC#N)c4c21)CNC3=O	92.8
CC(C)[C@H](CO)Nc1nc(Nc2cc(N)cc(Cl)c2)c2ncn(C(C)C)c2n1	37.7
